Experimental data of several laboratories.
Each line is one published result; not all experiments were run side by side. Several values in a cell are separate wells, animals, samples, runs or records. ± gives the spread as reported.
TOP2A: DNA topoisomerase 2-alpha (TOP2A, Homo sapiens, UniProt P11388)
UniProt P11388, sequence (whole entry, looked up): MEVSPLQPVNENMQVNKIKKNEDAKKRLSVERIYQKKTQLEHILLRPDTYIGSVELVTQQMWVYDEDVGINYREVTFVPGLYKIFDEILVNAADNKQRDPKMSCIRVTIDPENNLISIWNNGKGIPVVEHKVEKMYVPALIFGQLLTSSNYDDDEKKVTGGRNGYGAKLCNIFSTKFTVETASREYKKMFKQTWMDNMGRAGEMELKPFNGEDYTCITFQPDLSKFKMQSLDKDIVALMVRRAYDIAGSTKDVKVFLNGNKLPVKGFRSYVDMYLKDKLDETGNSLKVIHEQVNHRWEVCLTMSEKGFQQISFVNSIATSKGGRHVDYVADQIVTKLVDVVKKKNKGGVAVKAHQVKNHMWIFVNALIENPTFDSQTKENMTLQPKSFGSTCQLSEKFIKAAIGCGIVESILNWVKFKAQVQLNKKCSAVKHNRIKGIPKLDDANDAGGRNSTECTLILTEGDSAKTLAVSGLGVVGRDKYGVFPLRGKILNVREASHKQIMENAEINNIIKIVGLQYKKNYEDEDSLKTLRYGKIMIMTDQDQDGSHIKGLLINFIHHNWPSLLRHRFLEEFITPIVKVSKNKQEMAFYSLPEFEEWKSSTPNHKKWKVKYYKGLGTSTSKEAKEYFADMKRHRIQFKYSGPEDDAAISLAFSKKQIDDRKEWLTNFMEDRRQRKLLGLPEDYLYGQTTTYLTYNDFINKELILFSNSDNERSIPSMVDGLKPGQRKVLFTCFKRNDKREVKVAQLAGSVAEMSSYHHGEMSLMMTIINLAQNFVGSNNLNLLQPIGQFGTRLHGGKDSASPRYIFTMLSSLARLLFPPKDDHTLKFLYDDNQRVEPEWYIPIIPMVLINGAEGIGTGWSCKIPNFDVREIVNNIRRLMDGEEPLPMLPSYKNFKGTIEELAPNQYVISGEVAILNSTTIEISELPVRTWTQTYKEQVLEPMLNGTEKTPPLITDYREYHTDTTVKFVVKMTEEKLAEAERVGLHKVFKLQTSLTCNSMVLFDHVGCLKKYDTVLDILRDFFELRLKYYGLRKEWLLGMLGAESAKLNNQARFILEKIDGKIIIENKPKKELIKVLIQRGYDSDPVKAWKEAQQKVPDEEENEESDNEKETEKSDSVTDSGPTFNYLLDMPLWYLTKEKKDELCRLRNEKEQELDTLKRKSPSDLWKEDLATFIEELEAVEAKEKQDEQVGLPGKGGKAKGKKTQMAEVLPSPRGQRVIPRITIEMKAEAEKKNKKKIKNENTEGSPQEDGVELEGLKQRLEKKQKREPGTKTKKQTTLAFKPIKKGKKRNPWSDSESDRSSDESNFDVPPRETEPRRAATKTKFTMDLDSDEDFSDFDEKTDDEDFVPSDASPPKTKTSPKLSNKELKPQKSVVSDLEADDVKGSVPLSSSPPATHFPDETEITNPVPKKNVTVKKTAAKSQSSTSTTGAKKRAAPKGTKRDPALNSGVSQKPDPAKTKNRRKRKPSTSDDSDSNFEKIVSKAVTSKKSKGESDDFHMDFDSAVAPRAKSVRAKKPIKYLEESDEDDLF
Pteridine reductase 1: Pteridine reductase 1 (Leishmania major, UniProt Q01782)
UniProt Q01782, sequence (whole entry, looked up): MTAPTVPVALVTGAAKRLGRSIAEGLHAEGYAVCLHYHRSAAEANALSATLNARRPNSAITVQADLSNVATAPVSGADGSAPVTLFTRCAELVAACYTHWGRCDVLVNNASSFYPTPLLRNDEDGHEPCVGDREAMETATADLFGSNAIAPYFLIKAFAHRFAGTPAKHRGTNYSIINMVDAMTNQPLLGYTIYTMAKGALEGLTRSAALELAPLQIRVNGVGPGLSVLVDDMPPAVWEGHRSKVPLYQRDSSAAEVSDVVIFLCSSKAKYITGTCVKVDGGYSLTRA
T1: G-quadruplex RNA (Homo sapiens); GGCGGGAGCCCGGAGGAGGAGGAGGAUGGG
UniProt P51575, sequence (whole entry, unmodified, looked up): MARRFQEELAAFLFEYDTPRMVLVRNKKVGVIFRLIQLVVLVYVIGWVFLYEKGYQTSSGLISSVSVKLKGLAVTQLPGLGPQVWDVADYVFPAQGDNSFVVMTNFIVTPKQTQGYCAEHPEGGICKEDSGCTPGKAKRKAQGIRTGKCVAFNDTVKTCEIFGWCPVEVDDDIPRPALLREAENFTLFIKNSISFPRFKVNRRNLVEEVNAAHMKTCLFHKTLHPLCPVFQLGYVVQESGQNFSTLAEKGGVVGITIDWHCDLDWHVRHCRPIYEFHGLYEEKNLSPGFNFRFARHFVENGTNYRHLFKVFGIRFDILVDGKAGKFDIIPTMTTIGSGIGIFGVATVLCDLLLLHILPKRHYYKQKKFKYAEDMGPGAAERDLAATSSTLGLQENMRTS
UniProt O76090, sequence (whole entry, unmodified, looked up): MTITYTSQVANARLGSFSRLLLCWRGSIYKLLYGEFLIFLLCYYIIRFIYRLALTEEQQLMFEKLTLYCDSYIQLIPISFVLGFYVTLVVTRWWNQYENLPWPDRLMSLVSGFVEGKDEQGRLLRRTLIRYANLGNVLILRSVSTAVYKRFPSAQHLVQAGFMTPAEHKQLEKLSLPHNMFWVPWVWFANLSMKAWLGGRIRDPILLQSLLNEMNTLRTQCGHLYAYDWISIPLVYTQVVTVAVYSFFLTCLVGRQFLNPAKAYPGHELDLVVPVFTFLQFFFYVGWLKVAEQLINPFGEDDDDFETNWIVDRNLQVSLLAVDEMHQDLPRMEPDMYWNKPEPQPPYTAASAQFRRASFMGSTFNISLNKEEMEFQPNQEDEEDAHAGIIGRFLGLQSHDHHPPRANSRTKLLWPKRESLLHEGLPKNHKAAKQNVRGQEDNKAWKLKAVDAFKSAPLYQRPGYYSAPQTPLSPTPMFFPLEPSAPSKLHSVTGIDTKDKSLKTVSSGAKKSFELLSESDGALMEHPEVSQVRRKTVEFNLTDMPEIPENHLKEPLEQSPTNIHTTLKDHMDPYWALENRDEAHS
UniProt Q9H4A4, sequence (whole entry, looked up): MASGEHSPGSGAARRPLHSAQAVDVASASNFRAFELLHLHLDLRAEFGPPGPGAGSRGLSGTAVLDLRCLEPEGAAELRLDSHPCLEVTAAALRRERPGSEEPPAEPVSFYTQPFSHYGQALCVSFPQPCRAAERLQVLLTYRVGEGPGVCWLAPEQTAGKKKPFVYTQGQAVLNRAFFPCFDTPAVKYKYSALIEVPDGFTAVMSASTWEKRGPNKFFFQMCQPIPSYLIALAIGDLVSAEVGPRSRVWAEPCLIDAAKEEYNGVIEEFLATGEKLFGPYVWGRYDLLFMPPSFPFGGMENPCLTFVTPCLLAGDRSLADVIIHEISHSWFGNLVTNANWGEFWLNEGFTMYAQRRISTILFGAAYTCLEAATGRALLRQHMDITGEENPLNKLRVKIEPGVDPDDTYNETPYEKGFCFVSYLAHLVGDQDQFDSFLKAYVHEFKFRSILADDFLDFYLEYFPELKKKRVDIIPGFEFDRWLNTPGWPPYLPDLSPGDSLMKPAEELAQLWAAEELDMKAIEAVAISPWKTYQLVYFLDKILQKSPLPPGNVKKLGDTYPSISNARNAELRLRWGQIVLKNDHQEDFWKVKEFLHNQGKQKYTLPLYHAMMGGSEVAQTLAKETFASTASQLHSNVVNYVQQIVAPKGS
UniProt Q16774, sequence (whole entry, unmodified, looked up): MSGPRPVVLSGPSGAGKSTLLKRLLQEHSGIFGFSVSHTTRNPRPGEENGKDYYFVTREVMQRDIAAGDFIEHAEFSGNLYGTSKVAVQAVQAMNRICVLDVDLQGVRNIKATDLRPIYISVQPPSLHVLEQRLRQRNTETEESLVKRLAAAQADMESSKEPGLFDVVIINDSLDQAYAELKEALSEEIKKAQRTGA
UniProt Q8NFU1, sequence (whole entry, looked up): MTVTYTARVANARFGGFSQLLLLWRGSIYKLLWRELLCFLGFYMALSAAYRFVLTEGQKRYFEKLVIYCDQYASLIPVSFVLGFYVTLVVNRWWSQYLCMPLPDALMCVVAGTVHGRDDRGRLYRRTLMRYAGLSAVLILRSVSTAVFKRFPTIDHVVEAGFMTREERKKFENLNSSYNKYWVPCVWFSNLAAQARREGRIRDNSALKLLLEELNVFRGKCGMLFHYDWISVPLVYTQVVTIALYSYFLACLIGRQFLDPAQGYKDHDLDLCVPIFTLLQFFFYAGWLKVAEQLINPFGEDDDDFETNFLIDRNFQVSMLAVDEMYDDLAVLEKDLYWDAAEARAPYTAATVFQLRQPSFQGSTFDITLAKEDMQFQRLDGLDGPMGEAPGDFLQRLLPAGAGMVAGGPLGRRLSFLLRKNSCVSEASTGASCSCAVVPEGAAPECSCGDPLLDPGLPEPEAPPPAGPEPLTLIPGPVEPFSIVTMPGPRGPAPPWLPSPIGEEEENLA
UniProt Q96RI1, sequence (whole entry, looked up): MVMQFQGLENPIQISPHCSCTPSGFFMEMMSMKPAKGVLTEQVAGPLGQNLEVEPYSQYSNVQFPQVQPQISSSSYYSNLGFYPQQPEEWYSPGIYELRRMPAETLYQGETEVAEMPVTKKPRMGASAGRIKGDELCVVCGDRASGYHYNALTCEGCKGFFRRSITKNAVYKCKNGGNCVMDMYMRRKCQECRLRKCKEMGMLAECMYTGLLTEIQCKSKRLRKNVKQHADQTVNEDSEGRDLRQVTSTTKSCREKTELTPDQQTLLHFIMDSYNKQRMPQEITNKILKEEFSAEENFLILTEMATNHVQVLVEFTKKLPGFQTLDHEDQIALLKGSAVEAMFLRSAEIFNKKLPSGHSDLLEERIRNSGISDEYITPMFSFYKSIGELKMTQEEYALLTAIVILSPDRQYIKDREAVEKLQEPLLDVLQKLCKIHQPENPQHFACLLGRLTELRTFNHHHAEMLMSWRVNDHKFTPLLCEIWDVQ
UniProt P00441, sequence (whole entry, unmodified, looked up): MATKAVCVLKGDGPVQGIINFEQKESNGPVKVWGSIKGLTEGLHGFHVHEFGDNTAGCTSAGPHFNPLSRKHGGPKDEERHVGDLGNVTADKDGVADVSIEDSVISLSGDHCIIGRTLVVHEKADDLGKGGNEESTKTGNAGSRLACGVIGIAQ
UniProt P0ABQ4, sequence (whole entry, looked up): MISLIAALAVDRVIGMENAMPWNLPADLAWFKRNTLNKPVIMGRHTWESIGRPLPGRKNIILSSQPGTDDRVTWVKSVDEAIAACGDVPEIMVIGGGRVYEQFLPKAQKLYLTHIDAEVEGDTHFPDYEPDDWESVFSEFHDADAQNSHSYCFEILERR

Structure (SMILES) | target | assay | system | setting | how to read | endpoint | result
CC1(C)CC2(C)OC(=O)NC2(C)c2ccccc21 (centres unmarked) | DNA damage-binding protein 1 (DDB1, Homo sapiens, UniProt Q16531) | binding, affinity selection mass spectrometry |  |  | reference: other proteins in batch | fold enrichment | 0.486
O=c1nc(SCc2cc(F)cc(C(F)(F)F)c2)nc(SCc2ccc3nc(Cl)ccc3c2)[nH]1 | TOP2A | DNA relaxation |  | 31.25 µM |  | mean relaxed DNA | 94.5%
O=C(O)c1ccc(O)cc1 | Bestrophin-2a (BEST2, Homo sapiens, UniProt Q8NFU1) | whole-cell patch clamp | HEK293 transiently expressing channel | concentration not given, membrane potential -80 mV |  | current density | -111 pA/pF and -199 pA/pF and -130 pA/pF and -227 pA/pF and -205 pA/pF and -84.1 pA/pF and -257 pA/pF
O=c1c(OS(=O)(=O)[O-])c(-c2ccc(OS(=O)(=O)[O-])c(OS(=O)(=O)[O-])c2)oc2cc(OS(=O)(=O)[O-])cc(OCCOc3cc(-c4oc5cc(OS(=O)(=O)[O-])cc(OCCOc6cc(OS(=O)(=O)[O-])cc7oc(-c8ccc(OS(=O)(=O)[O-])c(OS(=O)(=O)[O-])c8)c(OS(=O)(=O)[O-])c(=O)c67)c5c(=O)c4OS(=O)(=O)[O-])ccc3OS(=O)(=O)[O-])c12.[Na+].[Na+].[Na+].[Na+].[Na+].[Na+].[Na+].[Na+].[Na+].[Na+].[Na+] | Neutrophil elastase (ELANE, Homo sapiens, UniProt P08246) | enzyme activity, inhibitor |  | added: chromogenic substrate |  | Hill slope | 2.4
Nc1ncnc2c1ncn2[C@@H]1O[C@H](COP(=O)(O)CP(=O)(O)OP(=O)(O)O)[C@@H](O)[C@H]1O | P2X purinoceptor 1 (P2RX1, Homo sapiens, UniProt P51575, R292A) | calcium influx |  | 31.6 µM | reference: ionomycin response | calcium influx | 100% and 61.3% and 82.6% and 89.9%
Oc1ccccc1-c1n[nH]cc1-c1ccnc2ccccc12 | Cell cycle protein kinase DBF2 (DBF2, Candida albicans, UniProt Q59KM8) | kinase binding, MIB/MS competition | Candida albicans lysate | 1 µM | reference: DMSO, negative = stronger binding | log2 fold change | -0.01
COc1ccc(Oc2ccc(CN(C)Cc3cnc4nc(N)nc(N)c4n3)cc2)cc1 | Pteridine reductase 1 |  |  | hDHFR weight 10 | reference: LmPTR1, LmDHFR over hDHFR, 1.0 selective, 0.0 non-selective | partition index | 0.96
O=c1nc(SCc2cc(F)cc(C(F)(F)F)c2)nc(SCc2ccc3ccccc3n2)[nH]1 | TOP2A | decatenation |  | 125 µM |  | mean decatenated DNA | 0%
O=C(COP(=O)(O)O)[C@@H](O)[C@H](O)[C@H](O)COP(=O)(O)O | Aminopeptidase B (Homo sapiens, UniProt Q9H4A4) | thermal proteome profiling, refers to: RNPEP | HepG2 cell lysate | concentration not given, 57 over 37 °C | reference: compound over control | thermal stability ratio | 0.522 and 0.171 and 0.583
c1ccc(CCCCCOCCc2ccc3c(c2)OCC3)cc1 | ATP2A2 (Sus scrofa, UniProt P11607) | ATPase Vmax increase, activator | pig microsomes | 0.1 to 50 µM | reference: vehicle | Emax | ~23%
Nc1nc(N)c2c(n1)CCCC2 | Dihydrofolate reductase (folA, Escherichia coli, UniProt P0ABQ4) |  |  | concentration not given, ternary complex with NADPH |  | major state population | 97.3 ± 0.3%
C=CC(=O)N1CCC[C@@H](n2nc(-c3ccc(Oc4ccccc4)cc3)c3c(N)ncnc32)C1 | Tyrosine-protein kinase TXK (TXK, Homo sapiens, UniProt P42681) |  |  | 0.1 µM |  | remaining activity | 73.6%
C#Cc1cccc(Oc2ccc(-c3nn([C@@H]4CCCN(C(=O)C=C)C4)c4ncnc(N)c34)cc2)c1 | Retinaldehyde dehydrogenase 3 (ALDH1A3, Homo sapiens, UniProt P47895) | ABPP-SILAC |  | 1 µM, 1 h | reference: DMSO | SILAC ratio | 20
CN1CCN(c2cc(-c3ccncc3)c(-c3ccc4ccccc4c3)nn2)CC1 | C-C chemokine receptor type 4 (CCR4, Homo sapiens, UniProt P51679) | antagonist, FLIPR |  | 10 µM |  | inhibition | 0.6%
C[C@@H](O)[C@H](NC(=O)[C@H](Cc1ccc(O)cc1)NC(=O)[C@H](Cc1ccc(O)cc1)NC(=O)[C@H](CO)NC(=O)[C@H](CCCNC(=N)N)NC(=O)[C@H](Cc1c[nH]cn1)NC(=O)[C@@H](N)Cc1c[nH]c2ccccc12)C(=O)N[C@@H](Cc1c[nH]c2ccccc12)C(=O)N[C@@H](CC(N)=O)C(=O)NCCCC[C@H](NC(=O)[C@H](CC(N)=O)NC(=O)[C@H](Cc1c[nH]c2ccccc12)NC(=O)[C@@H](NC(=O)[C@H](Cc1ccc(O)cc1)NC(=O)[C@H](Cc1ccc(O)cc1)NC(=O)[C@H](CO)NC(=O)[C@H](CCCNC(=N)N)NC(=O)[C@H](Cc1c[nH]cn1)NC(=O)[C@@H](N)Cc1c[nH]c2ccccc12)[C@@H](C)O)C(N)=O | Programmed cell death 1 ligand 1, with PD-1 (CD274, Homo sapiens, UniProt Q9NZQ7) | PD-1 binding, inhibitor, competitive ELISA |  | 2.5 µM | reference: PBS over 2% BSA | fold reduction of blocking | 1.5 fold
CN(Cc1cnc2nc(N)nc(N)c2n1)c1ccc(C(=O)N[C@@H](CCC(=O)O)C(=O)O)cc1 | Proton-coupled folate transporter (Homo sapiens, UniProt Q96NT5, I251A) |  | cells transfected with I251A mutant | 2 min, pH 5.5, 37 °C |  | uptake | 13%
O=c1c2nc(Br)n([C@@H]3O[C@@H]4CO[P@@](O)(=S)O[C@H]4[C@H]3O)c2nc2[nH]c(-c3ccccc3)cn12 (single isomer, unassigned) | anti-cGMP antibody | antibody binding, competitive cGMP EIA |  | concentration not given, acetylated samples | reference: EC50 cGMP over EC50 cpd, higher = stronger binding | relative binding affinity | 0.0018
N.N.[Cl-].[Cl-].[Pt+2] | T1, G-quadruplex RNA (Homo sapiens) | SPR |  | 25 °C, KCl 100 mM, folded rG4, covalent |  | Kd | 3.1 µM
Nc1nc2c(ncn2[C@@H]2O[C@H](COP(=O)(O)O)[C@@H](O)[C@H]2O)c(=O)[nH]1 | GUK1 (Homo sapiens, UniProt Q16774, Y81A) | enzyme activity, NADH-coupled |  | 15.62 µM |  | reaction rate | -0.235 s⁻¹ and 0.792 s⁻¹ and 0.852 s⁻¹
O=S(=O)(O)C1CCNCC1 | Sodium- and chloride-dependent taurine transporter (SLC6A6, Homo sapiens, UniProt P31641, G62A) | binding, microscale thermophoresis |  | 31.3 µM, room temperature, added: 50 nM labelled protein | higher = more binding | normalised MST signal | 0.00823
CC1(C)NC(=O)N(c2ccc3c(c2)OC(F)(F)O3)C1=O | Androgen receptor (AR, Homo sapiens, UniProt P10275) | DHT-induced transcription, antagonist, luciferase reporter | LAPC4 | added: dihydrotestosterone | reference: 1 | potency relative to reference | 2 fold

Structure (SMILES) | target | assay | system | setting | how to read | endpoint | result
Cc1nc(CSc2nc(SCc3cc(F)cc(C(F)(F)F)c3)nc(=O)[nH]2)cs1 | TOP2A | decatenation |  | 7.8 µM |  | mean decatenated DNA | 95.4%
[Zn+2] | Otop1 (Mus musculus, UniProt Q80VM9) | acid-evoked current, inhibitor, whole-cell patch-clamp | HEK293T | 10 mM, pH 5.5, unit not given | reference: current before compound | remaining current | 0.0856
CC(=C/C(=O)O)/C=C/C=C(\C)C1C=C2C(C)(C)CCCC2(C)O1 (centres unmarked) | Rhodopsin (RHO, Homo sapiens, UniProt P08100, E181K) | immunostaining, refers to: opsin | COS-7 transfected | 10.00 µM, unit not given | reference: surface over total stained cells | plasma membrane localization | 0.82
CC(=O)/N=c1/sc(S(N)(=O)=O)nn1C | Carbonic anhydrase 4 (CA4, Homo sapiens, UniProt P22748) | ITC |  | concentration not given, 25 °C |  | intrinsic binding ΔG | -10.4 kcal/mol
CN(C)C(=O)C(CCN1CCC(O)(c2ccc(Cl)cc2)CC1)(c1ccccc1)c1ccccc1 | Calcium-activated potassium channel subunit alpha-1, with LRRC26 γ1 subunit (KCNMA1, Homo sapiens, UniProt Q12791) | ion current, inside-out patch, fit of G-V curve | BKα/γ1 channel | 0.3 µM, added: nominally 0 Ca2+ |  | V1/2 | 11.9 mV
Cc1ccc(N(C)C(=O)/C=C/c2ccco2)cc1 | Neuronal acetylcholine receptor subunit alpha-7 (Chrna7, Rattus norvegicus, UniProt Q05941) | inhibitor |  | added: acetylcholine 30 µM |  | Hill coefficient | 1.3 ± 0.2
O=c1nc(SCc2cc(F)cc(C(F)(F)F)c2)nc(SCc2nc3ccccc3[nH]2)[nH]1 | TOP2A | decatenation |  | 125 µM, replicate 2 |  | decatenated DNA | 0%
Nc1ccc(C(=O)O)cc1 | BEST1, with wild-type BEST1 (Homo sapiens, UniProt O76090, L234P) | ion current, whole-cell patch clamp | HEK293 co-expressing mutant and wild-type | concentration not given, voltage 0 mV |  | current density | -0.02 pA/pF and 0.02 pA/pF and -0.01 pA/pF and -0.05 pA/pF and 0.03 pA/pF
Nc1nc(N)c2nc(CNc3cccc4ccccc34)cnc2n1 | Pteridine reductase 1 |  |  | hDHFR weight 10 | reference: LmPTR1, LmDHFR over hDHFR, 1.0 selective, 0.0 non-selective | partition index | 0.98
[O-][S+]1CCCCS1 (centres unmarked) | Superoxide dismutase [Cu-Zn] (SOD1, Homo sapiens, UniProt P00441, G94A) | intact protein LC-MS | SOD1 G93A transgenic mice, whole blood | intravenous, 10 mg/kg, 24 h |  | target engagement | 25.6% and 26%
Nc1ncnc2c1ncn2[C@@H]1O[C@H](CO[P@](=O)(O)O[P@](=O)(O)O[P@@](=O)(O)S)[C@@H](O)[C@H]1O | GUK1 (Homo sapiens, UniProt Q16774, S13A) | binding, ITC |  |  |  | ΔG | -5.43 kcal/mol
Cc1nc(CSc2nc(SCc3ccc(C(F)(F)F)cc3)nc(=O)[nH]2)cs1 | TOP2A | decatenation |  | 31.25 µM |  | mean decatenated DNA | 73.4%
CC[C@@H]1[C@H](F)C(=O)N[C@@H]1COc1nccc2cc(C(N)=O)c(OC)cc12 | Serine/threonine-protein kinase Chk2 (CHEK2, Homo sapiens, UniProt O96017) | ATP-site probe binding, ActivX profiling | THP-1 cell lysate | 0.04 mM, Lys2 site |  | inhibition | -4.5%
Nc1nc2c(ncn2[C@@H]2O[C@H](COP(=O)(O)OP(=O)(O)O)[C@@H](OP(=O)(O)OP(=O)(O)O)[C@H]2O)c(=O)[nH]1 | UDP-galactopyranose mutase (glf, Escherichia coli, UniProt P37747) | SILAC mass spectrometry, refers to: glf protein |  | concentration not given | reference: heavy over light | log2 fold change | 1.14
O=c1nc(SCc2ccc(C(F)(F)F)cc2)nc(SCc2ccc3sccc3c2)[nH]1 | TOP2A | decatenation |  | 31.25 µM |  | mean decatenated DNA | 0%
O=C(O)c1ccc(Nc2ncc3c(n2)-c2ccc(Cl)cc2C(c2c(F)cccc2F)=NC3)cc1 | human SRPK2(h) | kinase activity |  | 1 µM |  | remaining activity | 87%
O=C1CCC(N2C(=O)C=C(Nc3cccc(C4(NCCc5ccc(Cl)c(C(F)(F)F)c5)CCC4)c3)C2=O)C(=O)N1 (centres unmarked) | Cereblon/Ikaros (Homo sapiens, UniProt Q13422+Q96SW2) | protein degradation, degrader, HiBiT luminescence | Jurkat |  |  | Dmax | 85%
O=C(Nc1cccc2c(=O)cc(-c3nnn[nH]3)oc12)c1ccc(OCCCCc2ccccc2)cc1 | LRRC8A/LRRC8C (Homo sapiens, UniProt Q8IWT6+Q8TDW0, Y124F/Y126F) | whole-cell patch clamp | HCT116 LRRC8-/- transfected | at -100 mV |  | Hill coefficient | 1
O=C1C(SCCO)=C(SCCO)C(=O)c2ccccc21 | Protein-glutamine gamma-glutamyltransferase (TGM2, Homo sapiens, UniProt P21980) | enzyme activity, inhibitor |  | concentration not given, added: DTT | reference: without DTT over with DTT | potency reduction | ~50 fold
CCCCCCCCC(=O)c1cc(O)c(O)c(O)c1 | Bile acid receptor (NR1H4, Homo sapiens, UniProt Q96RI1) | reporter gene, Gal4 hybrid reporter |  | 10 µM | reference: vehicle | activation | 1.77 fold

Repeated from above:
Structure (SMILES) | target | assay | system | setting | how to read | endpoint | result
COc1ccc(Oc2ccc(CN(C)Cc3cnc4nc(N)nc(N)c4n3)cc2)cc1 | Pteridine reductase 1 |  |  | hDHFR weight 10 | reference: LmPTR1, LmDHFR over hDHFR, 1.0 selective, 0.0 non-selective | partition index | 0.96
O=c1nc(SCc2cc(F)cc(C(F)(F)F)c2)nc(SCc2ccc3ccccc3n2)[nH]1 | TOP2A | decatenation |  | 125 µM |  | mean decatenated DNA | 0%
O=C(COP(=O)(O)O)[C@@H](O)[C@H](O)[C@H](O)COP(=O)(O)O | Aminopeptidase B (Homo sapiens, UniProt Q9H4A4) | thermal proteome profiling, refers to: RNPEP | HepG2 cell lysate | concentration not given, 57 over 37 °C | reference: compound over control | thermal stability ratio | 0.522 and 0.171 and 0.583
